Measured values of several laboratories.
± marks the error that the study gave.

| Compound | test | test system | conditions | tissue uptake |
| --- | --- | --- | --- | --- |
| CCCC[C@H](NC(=O)CNC(=O)CNC(=O)CN1CCN(CC(=O)O)CCN(CC(=O)O)CCN(CC(=O)O)CC1)C(=O)N[C@H]1CC(=O)NCCCC[C@@H](C(N)=O)NC(=O)[C@H](Cc2c[nH]c3ccccc23)NC(=O)[C@H](CCCNC(=N)N)NC(=O)[C@@H](Cc2ccccc2)NC(=O)[C@H](Cc2c[nH]cn2)NC1=O [lead-203 labelled] | – | C57 mouse, bone | intravenous, 0.056 MBq, 2 h | 1.15 ± 0.36 %ID/g |
| CC(C)[C@H](NC(=O)[C@@H]1CCCN1C(=O)[C@H](CCCNC(=N)N)NC(=O)[C@H](CS)NC(=O)[C@H](Cc1c[nH]c2ccccc12)NC(=O)[C@H](CCCNC(=N)N)NC(=O)[C@@H](Cc1ccccc1)NC(=O)[C@H](Cc1c[nH]cn1)NC(=O)[C@H](CCC(=O)O)NC(=O)[C@H](CS)NC(=O)[C@H](CS)NC(=O)COCCOCCNC(=O)[C@@H]1CC(=O)N[C@@H](CCCNC(=N)N)C(=O)NCC(=O)N[C@@H](CC(=O)O)C(=O)N[C@H](Cc2ccc(O)cc2)C(=O)N1)C(N)=O [technetium-99m labelled] | – | nude mouse, M21 melanoma xenograft, spleen | intravenous, 2 h | 0.44 ± 0.27 %ID/g |
| COC(=O)c1ccc(-c2cn(Cc3cc(Cl)ccc3O[11CH3])nn2)cc1 | PET/CT | C57BL/6 mouse, kidney | 2 min | 3.56 %ID/cc |
| CC(C)C[C@H](NC(=O)C[C@H](O)[C@H](CC(C)C)NC(=O)[C@H](Cc1c[nH]cn1)NC(=O)CNC(=O)[C@@H](NC(=O)[C@H](C)NC(=O)[C@H](Cc1c[nH]c2ccccc12)NC(=O)[C@H](CCC(N)=O)NC(=O)[C@@H](Cc1ccccc1)NC(=O)CCNC(=O)CCNC(=O)CN1CCN(CC(=O)O)CCN(CC(=O)O)CCN(CC(=O)O)CC1)C(C)C)C(N)=O [lutetium-177 labelled] | – | mouse PC-3 xenograft, tumour | intraperitoneal, 200 pmol, 4 h, without PA | 7.2 ± 2.1 %ID/g |
| N=C(N)NCCC[C@@H]1NC(=O)[C@H](CCCCNC(=O)CON=C[C@H](F)[C@@H](O)[C@H](O)[C@H](O)CO)NC(=O)[C@@H](Cc2ccc(O)cc2)NC(=O)[C@H](CC(=O)O)NC(=O)CNC1=O [fluorine-18 labelled] | microPET imaging, ROI analysis | nude mouse, U-87 MG tumour xenograft, muscle | intravenous, 1 h | 0.2 ± 0.12 %ID/g |
| CC(C)[C@H](NC(=O)[C@@H]1CCCN1C(=O)[C@H](CCCNC(=N)N)NC(=O)[C@H](CS)NC(=O)[C@H](Cc1c[nH]c2ccccc12)NC(=O)[C@H](CCCNC(=N)N)NC(=O)[C@@H](Cc1ccccc1)NC(=O)[C@H](Cc1c[nH]cn1)NC(=O)[C@H](CCC(=O)O)NC(=O)[C@H](CS)NC(=O)[C@H](CS)NC(=O)CNC(=O)[C@@H]1CC(=O)N[C@@H](CCCNC(=N)N)C(=O)NCC(=O)N[C@@H](CC(=O)O)C(=O)N[C@H](Cc2ccc(O)cc2)C(=O)N1)C(N)=O [technetium-99m labelled] | – | C57 mouse, female, B16/F1 melanoma, tumor | intravenous, 0.037 MBq, 0.5 h | 9.44 ± 1.22 %ID/g |
| CCCC[C@H](NC(=O)CNC(=O)CNC(=O)CN1CCN(CC(=O)O)CCN(CC(=O)O)CCN(CC(=O)O)CC1)C(=O)N[C@H]1CC(=O)NCCCC[C@@H](C(N)=O)NC(=O)[C@H](Cc2c[nH]c3ccccc23)NC(=O)[C@H](CCCNC(=N)N)NC(=O)[C@@H](Cc2ccccc2)NC(=O)[C@H](Cc2c[nH]cn2)NC1=O [copper-64 labelled] | – | C57 mouse B16/F1 melanoma, blood | 2 h | 1.03 ± 0.19 %ID/g |
| O=C(O)CCC(NP(=O)(O)OCCC[C@@H](NC(=O)CC[C@H](NC(=O)CCCCCNC(=O)c1ccc([18F])cc1)C(=O)O)C(=O)O)C(=O)O (some centres unmarked) | – | mouse, CWR22Rv1 xenograft, kidney | dose not given, 4 h, blocking agent pre-dosed | 1.49 ± 0.268 %ID/g |
| CCCC[C@H](NC(=O)CNC(=O)CNC(=O)CN1CCN(CC(=O)O)CCN(CC(=O)O)CC1)C(=O)N[C@H]1CC(=O)NCCCC[C@@H](C(N)=O)NC(=O)[C@H](Cc2c[nH]c3ccccc23)NC(=O)[C@H](CCCNC(=N)N)NC(=O)[C@@H](Cc2ccccc2)NC(=O)[C@H](Cc2c[nH]cn2)NC1=O [copper-64 labelled] | – | female C57 mouse, B16/F1 melanoma, bone | intravenous, 0.037 MBq, 0.5 h | 0.41 ± 0.19 %ID/g |
| CC(C)[C@H](NC(=O)[C@@H]1CCCN1C(=O)[C@H](CCCNC(=N)N)NC(=O)[C@H](CS)NC(=O)[C@H](Cc1c[nH]c2ccccc12)NC(=O)[C@H](CCCNC(=N)N)NC(=O)[C@@H](Cc1ccccc1)NC(=O)[C@H](Cc1c[nH]cn1)NC(=O)[C@H](CCC(=O)O)NC(=O)[C@H](CS)NC(=O)[C@H](CS)NC(=O)[C@@H]1CC(=O)N[C@@H](CCCNC(=N)N)C(=O)NCC(=O)N[C@@H](CC(=O)O)C(=O)N[C@H](Cc2ccc(O)cc2)C(=O)N1)C(N)=O [technetium-99m labelled] | – | C57 mouse, female, B16/F1 melanoma, muscle | intravenous, 0.037 MBq, 24 h | 0.22 ± 0.15 %ID/g |
| CN(C)c1ccc(-c2nc3ccc(OCCCCCN4CCN5CCN(CC4)CC(=O)[O][Al]([18F])[O]C(=O)C5)cc3s2)cc1 | – | ICR mouse, kidney | intravenous, 30 min | 3.46 ± 0.47 %ID/g |
| CCCC[C@H](NC(=O)CN1CCC(NC(=O)CN2CCN(CC(=O)O)CCN(CC(=O)O)CCN(CC(=O)O)CC2)CC1)C(=O)N[C@H]1CC(=O)NCCCC[C@@H](C(N)=O)NC(=O)[C@H](Cc2c[nH]c3ccccc23)NC(=O)[C@H](CCCNC(=N)N)NC(=O)[C@@H](Cc2ccccc2)NC(=O)[C@H](Cc2c[nH]cn2)NC1=O [gallium-68 labelled] | biodistribution | C57BL/6J mouse male tumour-bearing, adrenal glands | 2 h post injection, unblocked | 0.4 ± 0.2 %ID/g |
| CN1C(=O)[C@@H](Cc2ccc(O)c(I)c2)NC(=O)CNC(=O)[C@H](Cc2ccc3ccccc3c2)NC(=O)[C@H](CCCNC(=N)N)NC(=O)[C@H]1CCCNC(=O)c1ccc(CNC(=O)CN2CCN(CC(=O)O)CCN(CC(=O)O)CC2)cc1 [fluorine-18 labelled] | biodistribution | SCID mouse, Daudi lymphoma xenograft, blood | 60 min | 1.98 ± 0.31 %ID/g |
| CCCC[C@H](NC(=O)CNC(=O)CNC(=O)CN1CCN(CC(=O)O)CCN(CC(=O)O)CCN(CC(=O)O)CC1)C(=O)N[C@H]1CC(=O)NCCCC[C@@H](C(N)=O)NC(=O)[C@H](Cc2c[nH]c3ccccc23)NC(=O)[C@H](CCCNC(=N)N)NC(=O)[C@@H](Cc2ccccc2)NC(=O)[C@H](Cc2c[nH]cn2)NC1=O [gallium-67 labelled] | – | female C57 mouse B16/F1 melanoma, normal organs except kidney | intravenous, 0.037 MBq, 24 h | < 1.68 %ID/g |

For quick reference, copied from above:
| Compound | test | test system | conditions | tissue uptake |
| --- | --- | --- | --- | --- |
| CC(C)C[C@H](NC(=O)C[C@H](O)[C@H](CC(C)C)NC(=O)[C@H](Cc1c[nH]cn1)NC(=O)CNC(=O)[C@@H](NC(=O)[C@H](C)NC(=O)[C@H](Cc1c[nH]c2ccccc12)NC(=O)[C@H](CCC(N)=O)NC(=O)[C@@H](Cc1ccccc1)NC(=O)CCNC(=O)CCNC(=O)CN1CCN(CC(=O)O)CCN(CC(=O)O)CCN(CC(=O)O)CC1)C(C)C)C(N)=O [lutetium-177 labelled] | – | mouse PC-3 xenograft, tumour | intraperitoneal, 200 pmol, 4 h, without PA | 7.2 ± 2.1 %ID/g |
| CCCC[C@H](NC(=O)CNC(=O)CNC(=O)CN1CCN(CC(=O)O)CCN(CC(=O)O)CC1)C(=O)N[C@H]1CC(=O)NCCCC[C@@H](C(N)=O)NC(=O)[C@H](Cc2c[nH]c3ccccc23)NC(=O)[C@H](CCCNC(=N)N)NC(=O)[C@@H](Cc2ccccc2)NC(=O)[C@H](Cc2c[nH]cn2)NC1=O [copper-64 labelled] | – | female C57 mouse, B16/F1 melanoma, bone | intravenous, 0.037 MBq, 0.5 h | 0.41 ± 0.19 %ID/g |
